Experimental data pooled from the literature.
± marks the error that the study gave.

SMILES | cell line | observed | method | time | notes | IC50
CCOP(=O)(OCC)C(Cc1ccccc1F)Nc1ccccc1 (stereo not shown) | U-118-MG | cell growth or viability | MTT | 48 h |  | 86.8 µM
N=C(N)NCCC[C@H](N)C(=O)N1CCC[C@H]1C(=O)N[C@H](CC(=O)N[C@@H](Cc1ccc(O)cc1)C(=O)O)c1cccc2ccccc12 | MCF-7 (no HER2 overexpression) |  |  |  |  | > 50 µM
CCNc1cc2c(cc1C)C1(c3cc(C)c(NCC)cc3O2)c2ccccc2C(=O)N1N=Cc1c[c-]c(-c2ccccn2)cc1.Cc1c(C)c(-c2ccc(-c3ccccc3)cc2)[c-](C)c1C.[Cl-].[Ir+3] | A549 human cancer cells | cell growth | MTT | 24 h |  | 23.2 ± 3.6 µM
CC1CC(=O)N(CCCN)N=C1c1ccc(NC(=O)N2Cc3ccncc3C2)cc1 (stereo not shown) | MDA-MB-453 | cell growth or viability | ATP luminescence |  |  | 0.00078 µM
CC(=O)Oc1ccccc1C(=O)[O][Pt]([NH2])([NH2])([Cl])([Cl])[O]C(=O)C(Cl)Cl | LoVo | cell growth or viability | MTT | 72 h |  | 0.755 µM
N[C@@H](CCC(=O)N[C@@H](CS[Se]Cc1ccc(-c2cc(C(F)(F)F)nn2-c2ccc(S(N)(=O)=O)cc2)cc1)C(=O)NCC(=O)O)C(=O)O | WM-115 melanoma cells | cell viability | MTS | 72 h | vertical stage | 3.1 ± 0.4 µM
CCOC12C(O)C(OC)C3(O)CC(O)(C1C3OC(=O)c1ccccc1)C13C(OC)CC(O)C4(COC)CN(C)C1C2C(OC)C43 (stereo not shown) | HBE | cell growth or viability | MTT |  |  | 32.1 µM
COc1ccc2nc(NC(=O)c3ccc(C(N)c4ccccc4)cc3)sc2c1 (stereo not shown) | NCI-H1155 | cell viability |  |  |  | > 10 µM
Cc1c(C)n(-c2c(C(C)C)cccc2C(C)C)c(=[Se])n1-c1c(C(C)C)cccc1C(C)C.[Cl][Au] | human ovarian cancer cells | cell viability | MTT | 72 h |  | 1 ± 0.1 µM
CC(=O)OC[C@]1(C)CCC[C@]2(COC(C)=O)[C@@H]1CC[C@@]13C[C@@H](C[C@H](O)[C@H]12)[C@@H](C)C3=O | HBE | cell growth or viability | MTT |  |  | > 20 µM
COc1ccc2cc3[n+](cc2c1OCc1cn(Cc2ccc(C#N)cc2)nn1)CCc1cc2c(cc1-3)OCO2 | SW1990 | cell growth or viability | MTT |  |  | 101 µM
O=[N+]([O-])[O-].[NH3+][Pt-2]1([NH3+])[O]C(c2ccccc2)=CC(c2ccccc2)=[O+]1 (stereo not shown) | U2OS | cell growth or viability | MTT |  |  | 2.7 µM
N=C(N/N=C/c1ccc2ccc3cccc4ccc1c2c34)N/N=C/c1ccc2ccc3cccc4ccc1c2c34 | KP-4 | cell growth or viability | crystal violet | 72 h |  | 163 µM
N#C/C(=C\c1cn(-c2ccccc2)nc1-c1cccc(Br)c1)c1nc2ccccc2[nH]1 | SW1990 | cell growth or viability | ATP luminescence | 72 h |  | 64.1 µM
COc1ccc(C(C)(O)C(C)(C)C(=O)O)cc1 (stereo not shown) | Fem-X | cell growth or viability |  | 72 h |  | 136 µM
O=C(c1ccncc1)N1N=C2/C(=C/c3ccc(Br)cc3)CCCC2C1c1ccc(Br)cc1 (stereo not shown) | human erythrocytes | membrane protection | HRBC membrane stabilization |  |  | 0.075 µM
CCCCCCCC(=O)Oc1c(C)c(OC)c2c(c1C)OC(=O)[C@@H](CCCCCC)[C@]2(O)/C=C/c1ccccc1 (racemic) | FaDu | cell growth or viability | SRB | 72 h |  | > 50 µM
CCCCCCCC(=O)NCCNC(=O)[C@]1(C)[C@@H]2CC[C@]3(C)[C@H](C(=O)C=C4[C@@H]5[C@@H](C)[C@H](C)CC[C@]5(C)CC[C@]43C)[C@@]2(C)CC[C@H]1OC(C)=O | HBE | cell growth or viability | MTT | 48 h |  | 4.89 µM
C=CC(OC(C)=O)c1cc(OC)c(OC(C)=O)c(OC)c1 (stereo not shown) | HSC-4 |  | MTT | 24 h |  | > 50 µM

For quick reference, copied from above:
SMILES | cell line | observed | method | time | notes | IC50
CCOP(=O)(OCC)C(Cc1ccccc1F)Nc1ccccc1 (stereo not shown) | U-118-MG | cell growth or viability | MTT | 48 h |  | 86.8 µM
